Published values collected from several papers.
Numbers after ± are the reported error.

`CCOC(=O)CC[C@@H](C)[C@H]1CC[C@H]2[C@@H]3[C@H](O)C[C@@H]4C[C@H](O)CC[C@]4(C)[C@H]3C[C@H](O)[C@]12C` has an IC50 of 43 µM (A2780; cell growth or viability, MTT; 48 h).
For `O=C1Nc2ccccc2C1(c1c[nH]c2ccccc12)c1c[nH]c2ccccc12`, the IC50 was 19.3 µM (human blood monocytes; cell viability; 24 h).
`O=C(NCc1cc(F)cc(F)c1)[C@@]1(O)CCN(c2ccc3[nH]ccc3c2)C1=O` gave an IC50 of 0.045 µM (MAXF 1384; colony formation).
`Cc1ccc2c(Br)cc(Br)c([O-])c2n1.Cc1ccc2c(Br)cc(Br)c([O-])c2n1.[Co+2].c1ccc(-c2ccccn2)nc1` has an IC50 of 9.02 µM (BEL-7404; cell growth or viability, MTT; 48 h).
With `CC(C)c1ccc(N(C)c2ccc3c(c2)OCC[C@H]3CNc2cnccc2C(=O)O)cc1` the IC50 was 0.011 µM (A101D; cell growth or viability, ATP luminescence; 7 days).
`Cc1ccc2c(Cl)cc(Cl)c([O-])c2n1.Cc1ccc2c(Cl)cc(Cl)c([O-])c2n1.[Co+2].c1cnc2c(c1)ccc1cccnc12` gave an IC50 of 4.01 µM (BEL-7404; cell growth or viability, MTT; 48 h).
The IC50 of `C[C@@H]1CC[C@@H]([C@@](O)(CNCc2ccccc2F)COCc2ccccc2)[C@H](OCc2ccccc2)C1` is reported as 4.01 µM (A2780; cell growth or viability, MTT; 72 h).
With `CC(C)C(=O)Cc1c(OCC(O)C(C)(C)O)ccc2ccc(=O)oc12` (stereo not shown) the IC50 was > 100 µM (MRC5; cell growth or viability, MTT; 72 h).
For `C=CC(=O)N1CCCC(n2c(=O)c3ncccc3n(Cc3ccc(Oc4ccccc4)cc3)c2=O)C1` (stereo not shown), the IC50 was 12 µM (Pfeiffer; cell growth or viability, MTT; 72 h).
For `C[C@@H]1CC[C@@H]([C@](O)(CNCc2ccc(F)cc2)COCc2ccccc2)[C@H](OCc2ccccc2)C1`, the IC50 was 11.8 µM (A2780; cell growth or viability, MTT; 72 h).
`CNS(=O)(=O)Nc1nccc(Cc2c(C)c3ccc(Oc4ncccc4F)cc3oc2=O)c1F` has an IC50 of > 1 µM (HCC1187; cell viability; 7 days).
`Cc1cc(C)cc(NC(=O)N(Cc2ccc(C(=O)NO)cc2)OCc2ccccc2)c1` has an IC50 of 3.67 ± 0.062 µM (SUP-B15 B-ALL; cell viability, CellTiter-Glo; 72 h).
With `O=C(Nc1cc(-c2ccnc3[nH]ccc23)c(Cl)cn1)[C@H]1CCC[C@@H](NC(=O)C(F)(F)F)C1` the IC50 was 0.0252 µM (MINO; cell growth or viability; 72 h).
`COc1cc(-c2cn(C)c(=O)c3cnccc23)cc(OC)c1Cn1ccnc1` gave an IC50 of 6.8 µM (MOLM16; cell growth or viability, ATP luminescence).
With `CC(=O)Oc1ccccc1C(=O)[O][Pt]([NH2])([NH2])([Cl])([Cl])[O]C(C)=O` the IC50 was 1.11 µM (LoVo; cell growth or viability, MTT; 72 h).
`NC(=O)c1ccc(-c2ccccc2Cl)c2c3c([nH]c12)CC[C@H](N)C3` gave an IC50 of 0.0209 µM (K562 parental; cell proliferation).

Repeated from above:
With `O=C(Nc1cc(-c2ccnc3[nH]ccc23)c(Cl)cn1)[C@H]1CCC[C@@H](NC(=O)C(F)(F)F)C1` the IC50 was 0.0252 µM (MINO; cell growth or viability; 72 h).
`COc1cc(-c2cn(C)c(=O)c3cnccc23)cc(OC)c1Cn1ccnc1` gave an IC50 of 6.8 µM (MOLM16; cell growth or viability, ATP luminescence).
